Results collected from several papers.
Each line is one published result; not all experiments were run side by side.

`FC(F)(F)c1ccc(CNc2ccc(Cc3c[nH]c4ncc(Cl)cc34)cn2)cn1`: “patients with treatment-related adverse event” 8% (item: aspartate aminotransferase increased; patients with TGCT; oral, 1000 mg/day, grade 3 or higher).
For `C[C@@H](c1ccc2nccn2c1)n1nnc2ncc(-c3cnn(C)c3)nc21`, “patients with adverse events” read 0% (item: treatment-related grade ≥3 Myalgia; EGFR-mutant MET-altered NSCLC; oral).
Under “patients with adverse event”, `O=C(Nc1nc2cccc(-c3ccc(CN4CCS(=O)(=O)CC4)cc3)n2n1)C1CC1` is recorded as 0% (item: abdominal discomfort; rheumatoid arthritis patients; oral, 200 mg once daily, 4 weeks, any relatedness).
`CCOc1c([C@H](C)n2nc(C)c3c(N)ncnc32)cc(Cl)c(F)c1[C@@H]1CNC(=O)C1` has a patients of 100% (item: QRS ≤100 ms; previously treated B-cell malignancy; oral, 10 mg once daily, baseline below thresholds).
Under “patients with immune-mediated AE”, `Cc1cc(-c2nnc(N)nc2-c2ccc(F)cc2)cc(Cl)n1` is recorded as 0% (item: myositis; post-IO NSCLC patients; oral, 100 mg once daily, treatment-related, grade 1).
`CNC(=O)c1cc(Oc2ccc(NC(=O)Nc3cc(C(C)(C)C)nn3-c3ccc4ncccc4c3)c(F)c2)ccn1` — result for “patients with cardiac disorders”: 17% (patients; oral, dose not given, cycles 1 and 2, High Cmax subgroup).
For `COc1cc(Nc2ncc3c(n2)-c2ccc(Cl)cc2C(c2c(F)cccc2OC)=NC3)ccc1C(=O)O`, “patients with decreased ejection fraction” read 4% (cancer patients; oral, dose not given, grade 3 any attribution, with: pembrolizumab).
`C=CC(=O)NC1CCN(c2ncc3ncnc(Nc4ccc(Oc5ccc6c(c5)ncn6C)c(C)c4)c3n2)CC1` — result for “patients with Flatulence”: 0% (male patients; oral, dose not given, on-treatment adverse events).
For `COc1ccc([C@@H](O)c2cc(-c3ncnc4cc(N5CCOCC5)ccc34)c(F)cc2Cl)nn1`, “patients with TEAE” read 83% (item: general and administration site disorders; locally advanced rectal cancer patients; 100 mg, with: capecitabine plus radiotherapy).
For `CCO[C@H]1CCN(Cc2c(OC)cc(C)c3[nH]ccc23)[C@H](c2ccc(C(=O)O)cc2)C1`, “patients with adverse event” read 20% (item: Hematuria; PNH patients, active haemolysis; oral, 100 mg twice daily, extension phase).
Under “patients discontinuing for AE”, `C[C@@H](Nc1cc(F)cc(F)c1)c1cc(C(=O)N(C)C)cc2c(=O)cc(N3CCOCC3)oc12` is recorded as 0% (CTCAE v4, item: abdominal pain; patients with advanced solid tumours; oral, dose not given, phase I dose expansion).
`CNC(=O)c1ccc(-c2cnc3ncc(Cc4ccc5ncccc5c4)n3n2)cc1F`: “patients with adverse event” 0% (item: Dyspnea; other cancer patients; oral, 600 mg twice daily, expansion cohort, grade 3-4).
`Cc1cc(NC2CCN(C(=O)OC3CCN(C(=O)/C=C/CN(C)C)C3)CC2)n2ncc(C(C)C)c2n1` (centres unmarked) — result for “patients with TEAE”: 0% (CTCAE v4.0, item: Flatulence; patients with advanced solid tumours; oral, dose not given, all schedules, grade 3 or higher).
`C=CC(=O)Nc1cc(Nc2nccc(-c3cn(C)c4ccccc34)n2)c(OC)cc1N(C)CCN(C)C`: “patients with adverse events” 2% (item: treatment-related grade ≥3 Diarrhea; EGFR-mutant MET-altered NSCLC; oral, dose not given, all).

For quick reference, copied from above:
`CCOc1c([C@H](C)n2nc(C)c3c(N)ncnc32)cc(Cl)c(F)c1[C@@H]1CNC(=O)C1` has a patients of 100% (item: QRS ≤100 ms; previously treated B-cell malignancy; oral, 10 mg once daily, baseline below thresholds).
